Measured values from different studies.
Parts stem from different laboratories: compare values within a part only. Changes are numbered by the printed parent chain.

Sample 1 — technique: RNA Bind-n-Seq; molecule type: RNA; sample: in vitro; concentration: 200 nM; notes: whole 134-nt RNA, ends assumed; together with: 150 mM LiCl; relative to: input library; direction: higher = stronger binding; library: 7-deaza-guanosine replaces G
Target: Ras GTPase-activating protein-binding protein 1, full length (G3BP1, Homo sapiens, UniProt Q13283)
Sequence of UniProt Q13283 (whole entry, looked up): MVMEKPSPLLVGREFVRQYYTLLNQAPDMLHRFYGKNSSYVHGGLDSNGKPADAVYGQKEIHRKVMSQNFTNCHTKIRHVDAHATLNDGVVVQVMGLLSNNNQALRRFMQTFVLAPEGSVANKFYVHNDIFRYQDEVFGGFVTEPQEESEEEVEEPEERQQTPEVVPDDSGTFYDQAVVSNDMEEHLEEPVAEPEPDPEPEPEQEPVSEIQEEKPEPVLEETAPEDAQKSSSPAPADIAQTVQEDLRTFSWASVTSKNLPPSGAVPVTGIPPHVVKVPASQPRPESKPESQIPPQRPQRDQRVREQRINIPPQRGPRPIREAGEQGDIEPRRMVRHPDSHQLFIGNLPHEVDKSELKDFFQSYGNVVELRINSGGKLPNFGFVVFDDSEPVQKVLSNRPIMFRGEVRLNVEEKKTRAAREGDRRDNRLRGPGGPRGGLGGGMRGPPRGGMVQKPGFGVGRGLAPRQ
Oligonucleotide	log2 enrichment
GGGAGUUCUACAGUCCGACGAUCUCAAGUCCUGUGCUACACAUCGUAUGUACCGAAUCGGUUUUUUUGGAAAGGUGGAAAGUAUUAUGUUACGCCGUUCGGAUCUGCACUUCCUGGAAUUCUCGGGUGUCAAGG	-0.1
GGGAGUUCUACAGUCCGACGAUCAGUCCUGUGCUACACAUCGUAUGUACCGAAUCAAACCCAAAUUUUUUUAAAUUUAAAAAAGUAUUAUGUUACGCCGUUCGGAUCUGCACUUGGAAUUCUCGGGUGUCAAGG	-1.14
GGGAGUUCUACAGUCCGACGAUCAGUCCUGUGCUACACAUCGUAUGUACCGAAUCGGCCCCGGGGCCCCGGGGCCCCGGGAAAGUAUUAUGUUACGCCGUUCGGAUCUGCACUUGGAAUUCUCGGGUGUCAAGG	-2.39
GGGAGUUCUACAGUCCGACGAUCCAAGUCCUGUGCUACACAUCGUAUGUACCGAAUCGGAGGUUUUUUUGGUUUUUGGAAAGUAUUAUGUUACGCCGUUCGGAUCUGCACUUCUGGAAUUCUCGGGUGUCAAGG	-1.24
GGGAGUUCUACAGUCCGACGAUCACCAUGCAGGUGGGCAUCUUUGGGAAGUGGGGCAAGGGGGGGAUAGGGAGGGGGGUAACACUUUGCGAACAGGUGGUCCCAGGUCGUUUCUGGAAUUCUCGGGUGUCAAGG	-0.0989
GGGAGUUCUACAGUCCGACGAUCGUCCUGUGCUACACAUCGUAUGUACCGAAUCAAACCCCCAAACCCAAACCCCCCCAAAAAAGUAUUAUGUUACGCCGUUCGGAUCUGCACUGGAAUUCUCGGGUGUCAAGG	-0.769
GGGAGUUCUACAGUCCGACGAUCACCAUGCAGGUGGGUAUCUUUGGGAAGUGGGGCAAGGGGGGGAUAGGGAGGGGGGUAACACUUUGGGAACAGGUGGUCCCAGGUCGUUUCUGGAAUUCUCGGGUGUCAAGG	0.119
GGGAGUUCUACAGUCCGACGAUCCCUGUGCUACACAUCGUAUGUACCGAAUCGGGGAAAGGGGUUUUUUUGGGGAAAAAGGGGAAAGUAUUAUGUUACGCCGUUCGGAUCUGCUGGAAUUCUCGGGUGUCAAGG	0.449

Sample 2 — technique: protein binding microarray; molecule type: double-stranded DNA, one strand shown; sample: in vitro; concentration: not given; relative to: not given; direction: higher = stronger binding
Target: Histone acetyltransferase KAT6A, both winged helices, GST fusion (KAT6A, Homo sapiens, UniProt Q92794, residues 1-181)
Notes: 8-mer, flanks averaged, mean of 2 arrays, mostly near background
Target sequence (chain): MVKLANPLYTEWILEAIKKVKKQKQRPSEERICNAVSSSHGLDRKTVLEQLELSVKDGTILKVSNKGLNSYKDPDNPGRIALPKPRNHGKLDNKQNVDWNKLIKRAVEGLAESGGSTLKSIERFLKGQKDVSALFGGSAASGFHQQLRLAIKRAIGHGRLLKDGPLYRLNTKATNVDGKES
Oligonucleotide	E-score
AAAAGGAA	-0.148
GACCCAAC	-0.16
AGGGTGTC	-0.337
ATCGTTAA	-0.0305
CCCGAGAG	0.0798
AAACTTCG	-0.0423
AATCCTGG	-0.137
GAGGCGCC	0.262
ACCCTCAC	-0.176
AGACCACC	-0.107
ACCGTGCT	0.0431
TGCCTCCA	-0.218
CGTTCTAC	0.0434
CCTGTAGC	-0.107
CATATGTA	-0.124
GTGGGTGA	-0.0483
ATCTACAG	0.0204
GATGAATC	-0.147
GTTTGGGA	-0.185
AACTGTGC	-0.0598

Sample 3 — technique: RNA Bind-n-Seq; molecule type: RNA; sample: in vitro; concentration: not given; relative to: input RNA pool; direction: higher = stronger binding
Target: RING finger protein unkempt homolog, zinc fingers 1-6, GST-SBP tag (UNK, Homo sapiens, UniProt Q9C0B0, residues 30-357)
Sequence of UniProt Q9C0B0 (30-357, looked up): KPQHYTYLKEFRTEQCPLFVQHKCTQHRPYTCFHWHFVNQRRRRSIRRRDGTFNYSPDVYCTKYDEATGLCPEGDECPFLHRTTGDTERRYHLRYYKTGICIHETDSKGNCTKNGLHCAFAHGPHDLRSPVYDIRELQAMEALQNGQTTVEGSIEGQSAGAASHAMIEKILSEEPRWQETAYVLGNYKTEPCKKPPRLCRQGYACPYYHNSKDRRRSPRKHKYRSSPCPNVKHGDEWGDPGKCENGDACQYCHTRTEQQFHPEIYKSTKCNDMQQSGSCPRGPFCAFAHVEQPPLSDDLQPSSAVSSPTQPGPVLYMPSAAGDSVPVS
Notes: RNA with constant flanks, human and mouse sites, ends assumed
Oligonucleotide	bound/input enrichment
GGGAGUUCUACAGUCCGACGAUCUAAAUAUAGGCCUUGUUAUCUCAAAAAACAGAUCUGGUUCAAACUUAUUAUACCAAUAUCAUACUAUUUAAAUGUUCUAAGUAAACAAGCCAUGUGAGCAUCAAGUGGCAUUGGCUCUUUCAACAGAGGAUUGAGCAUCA	0.694 ratio
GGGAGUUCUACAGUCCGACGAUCAUCCCAAUUAUGGACACCGGUGAAAACCCAGAGGUGCCCUUCCCUCGGGACAUGAUCGACUUAGAGGCCAAUUUCGAGAAGAUUGAAAAUGAACUGAAGGAAAUCAACACUAACCAGGAACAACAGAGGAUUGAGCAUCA	0.159 ratio
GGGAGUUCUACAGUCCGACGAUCGGGAGCAUUGCAGAGCAUUGUGCCUCUUUUCAUAUAUAUGAAUAAGUUUUACAUCGAAACCAAGCUUAACAGAGACUUAAAAGAUGACCUUAUAAAGCUGUUUACGGAACAUGUUGCAGACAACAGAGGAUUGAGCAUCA	0.182 ratio
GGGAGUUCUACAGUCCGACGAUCCAUGUCACAAAGUUUUUUAACUAUAAGGUUGUAUUGCUGGGAAAAUACAACGCACAAGGCCUGGGCGCAGACCAUGAGUUGAUGCUGAGGUGCACCAGAGGACAAGAGUAUGUCAAAGUCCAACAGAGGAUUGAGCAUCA	0.323 ratio
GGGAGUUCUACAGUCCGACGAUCUGGGAUGAAAAUCUCAAAGAUGAUUCUCUUCCUGAAAAUCCAAUAGACUUUUCUUACAGAGUAGCUGCUUGUCUUCCUAUUGAUGAUGUAUUGAGAAUUCAGCUCCUUAAAAUCGGCAGUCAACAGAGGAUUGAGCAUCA	0.253 ratio
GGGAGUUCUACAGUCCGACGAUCGCAGUCUUGUACUGUGACCUAAGAACAAAACUGUAACUGCAUUAGAAACCAUGAAAAAAUUAGAUAUUGUUUUGUGACUUUUAGACAGUGGUAAAUAUAGAACCAUGAAUUCUGGUCACACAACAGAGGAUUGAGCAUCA	316 ratio
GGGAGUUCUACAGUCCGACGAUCUCAGAGGCUUUCCUCUCGAAUCUAGUCGUUAACAAGACCAUCUUUGCUAAAGUAGACAGGUUGGCUGGAGUCAUCAACUUCCAGAGACCCAAGGAUCCAAAUAAUUUAUUAAAUGACUGGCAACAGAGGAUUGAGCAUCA	0.411 ratio
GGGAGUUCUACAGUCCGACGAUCUCAGGGCCAAAACUGGAACCAAGGAUUUAAUAACUAUUAUGAUCAAGGAUAUGGAAAUUAUAAUAGUGCCUAUGGUGGUGAUCAGAACUAUAGUGGCUAUGGCGGCUAUGAUUAUACUGGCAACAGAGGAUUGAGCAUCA	0.201 ratio

Sample 4 — technique: universal PBM; molecule type: double-stranded DNA, one strand shown; sample: in vitro; concentration: not given; direction: higher = stronger binding
Target: Sal-like protein 4, full length isoform B (SALL4, Homo sapiens, UniProt Q9UJQ4-2, residues 1-616)
Notes: 8-mer, flanks averaged, mean of replicates
Oligonucleotide	E-score
TAGCACAA	0.0502
TAGGCCAA	0.0921
GCACATCC	0.0225
AGAACGTA	0.0297
GCCCCCGC	-0.352
GGAATTAA	0.231
GAACATTA	0.255
GCGAACCA	-0.0458
AAAGCAGT	-0.0301
AGTAGACT	0.0312
GAACCTGA	-0.128
CTCAAACC	-0.184
ATCGTGAC	0.0269
CCATACAA	0.188
ATTCCCGG	-0.12
ACTGACTA	0.0104
GAGGACAA	-0.0544

Sample 5 — technique: DHFR PCA, deep sequencing; sample: yeast; together with: (+)-ABA 58 µM; relative to: wild-type fitted maximum; direction: higher = stronger binding
Target: ABI1, truncated, D143A, DHFR fusion (Arabidopsis thaliana)
Notes: methotrexate growth selection, single substitutions
Parent: PYL1, truncated, DHFR fusion (Arabidopsis thaliana); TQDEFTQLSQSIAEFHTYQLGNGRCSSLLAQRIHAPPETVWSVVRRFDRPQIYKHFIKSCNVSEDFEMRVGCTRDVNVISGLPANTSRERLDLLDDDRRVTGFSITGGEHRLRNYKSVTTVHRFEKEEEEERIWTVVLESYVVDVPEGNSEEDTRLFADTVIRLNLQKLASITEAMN; partner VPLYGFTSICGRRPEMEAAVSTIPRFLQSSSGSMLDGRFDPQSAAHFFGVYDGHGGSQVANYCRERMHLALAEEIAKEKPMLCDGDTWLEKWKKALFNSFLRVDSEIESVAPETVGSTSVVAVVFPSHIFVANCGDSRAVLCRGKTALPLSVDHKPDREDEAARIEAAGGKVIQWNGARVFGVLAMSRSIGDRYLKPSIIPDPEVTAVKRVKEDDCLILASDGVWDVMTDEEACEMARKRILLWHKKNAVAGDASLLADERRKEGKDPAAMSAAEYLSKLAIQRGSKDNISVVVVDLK
Variant	relative binding score [%]
I105C	67.4
N149W	4.88
I33Y	-12.5
S63Q	85.4
T119L	87.3
E152Q	82
Q7W	95.9
N77T	92.5
Q167W	57.7
I172V	86.2
R74Q	8.35
H16S	-9.62
E129Y	91.6
S63L	72.9
W41R	-17.5
E127L	91.4
I133M	90.7
E125L	92.2
V62N	21.7

A few entries again (sample 4):
Oligonucleotide	E-score
AGAACGTA	0.0297
GAACCTGA	-0.128
AGTAGACT	0.0312
GAACATTA	0.255
GGAATTAA	0.231
GCACATCC	0.0225
